Results gathered from unrelated publications.
Each numbered part is a random draw from the data of one study; scales do not carry over between parts.

Series 1 — method: protein-binding microarray; molecule type: double-stranded DNA, one strand shown; sample: in vitro; concentration: 250 nM; setting: 60-bp whole probe; added: salmon DNA 0.4 mg/ml; relative to: random background probes; direction: higher = stronger binding; quantity: log fluorescence; constant ends, left off below: GCCTAGCAC … GTCTTGATTCGCTTGACGCTGCTG
Target: Interferon regulatory factor 7, full length, phosphomimetic (IRF7, Homo sapiens, UniProt Q92985, residues 1-503, S101K/S471D/S472D/S475D/S476D/S477D/S483D/S484D/S487D)
Target sequence (chain): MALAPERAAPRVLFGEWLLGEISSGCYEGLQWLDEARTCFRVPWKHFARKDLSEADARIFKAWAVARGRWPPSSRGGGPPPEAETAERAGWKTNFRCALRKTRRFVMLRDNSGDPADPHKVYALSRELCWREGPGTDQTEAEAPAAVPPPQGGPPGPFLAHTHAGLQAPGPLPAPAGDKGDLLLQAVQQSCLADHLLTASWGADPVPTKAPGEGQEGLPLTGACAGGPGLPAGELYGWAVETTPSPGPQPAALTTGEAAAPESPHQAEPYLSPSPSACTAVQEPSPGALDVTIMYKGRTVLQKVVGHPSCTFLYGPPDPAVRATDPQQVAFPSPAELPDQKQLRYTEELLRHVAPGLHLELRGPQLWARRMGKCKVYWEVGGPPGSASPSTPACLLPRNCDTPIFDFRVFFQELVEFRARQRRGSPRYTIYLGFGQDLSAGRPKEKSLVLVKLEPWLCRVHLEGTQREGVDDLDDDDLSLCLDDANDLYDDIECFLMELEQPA
TTAGATTTGGGGTATCGATTAGTGCTA: 0.304 z-score
CGGGCTTTCCCGTCCAGGGCGTGCTAG: 0.482 z-score
TCAAGTTTTACTTTCTAACTGTGCTAG: 1.22 z-score
GACGGTGTCCTTATCCTGACGTGCTAG: -0.382 z-score
GACGGTTTCGACAGTGGGGACGTGCTA: 2.23 z-score
TCCAATTACCTTTTCACTTTGTGCTAG: 1.22 z-score
GACGGTATCGACTATAGGGACGTGCTA: -0.262 z-score
TTTGGTATCGGGTATCGGTTAGTGCTA: 1.75 z-score
CTACGCCTGCAGGTGAGCCGGTGCTAG: -0.445 z-score
AAGTAAAATGCAAAGAGGAAGTGCTAG: -0.197 z-score
CAAGTTACCCACCTCAGGTAGTGCTAG: 0.811 z-score
ATAGATCTCAGACTGGATTAGTGCTAG: -0.251 z-score
TTAGGTATTGGGTATCGGTTAGTGCTA: 0.733 z-score
GACGGACCGGGACTGGGGACGTGCTAG: -0.265 z-score
GACGGTTACCTTTCCCTGACGTGCTAG: 0.675 z-score
TTAGGGTTCGGGACTGGGTTAGTGCTA: 0.271 z-score
TCACTTCTCTTTTGGCTACTGTGCTAG: 2.06 z-score
GACGAACTGAGACAGGAGACGTGCTAG: 0.0123 z-score
GACGGGTTCGACACTGGGGACGTGCTA: 0.0695 z-score

Series 2 — method: competition protein-binding microarray; molecule type: double-stranded DNA, one strand shown; sample: in vitro; concentration: 2 µM; added: Cbf1 competitor, 0.05 µM; direction: higher = stronger binding; quantity: fluorescence intensity; constant ends, left off below: … GTCTTGATTCGCTTGACGCTGCTG
Target: Phosphate system positive regulatory protein PHO4, full length, GST-tagged (PHO4, Saccharomyces cerevisiae, UniProt P07270, residues 1-312)
Setting: whole 60-bp probe, lowest competitor level
Target sequence (chain): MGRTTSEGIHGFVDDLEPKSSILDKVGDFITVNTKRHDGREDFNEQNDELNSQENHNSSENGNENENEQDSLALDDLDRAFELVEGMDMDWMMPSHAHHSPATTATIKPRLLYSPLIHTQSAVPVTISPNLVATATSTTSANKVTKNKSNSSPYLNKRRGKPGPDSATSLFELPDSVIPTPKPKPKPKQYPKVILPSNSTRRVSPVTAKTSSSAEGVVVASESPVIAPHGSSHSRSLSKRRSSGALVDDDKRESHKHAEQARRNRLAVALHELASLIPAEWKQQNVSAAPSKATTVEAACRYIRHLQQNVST
GTCTTGTCTCATTGTCACTCTACTTTCCCCACTTCA: 4290 a.u.
CGTCCTAGTGATTTTCACGTGCCGTCCATGAGGAAG: 15100 a.u.
CTAACGAAGGTTTTTCACGTGCTATACAAGCCAAGT: 15700 a.u.
CGTAGGGCAATTTTTAGCGTGATGGATAAGGGCGCA: 3780 a.u.
CCCAATTTTTAAAAACACGTGCCGACCAGGATTGGG: 17300 a.u.
TAAGTGTGTCCCACACTCGTGGCAATTTTTCTTGAT: 10900 a.u.
GACACTTCTTTGTATAACGTGACGGTGGTGTCGCCA: 7940 a.u.
TGCGCAACAACTTGCGGGGTGGGTGTATGTCTAGAA: 5310 a.u.
TCGGTTGTCCAAACCCATGTGGTGCTGGTGGCGGAA: 9530 a.u.
GCAATTGAGCTTTAGCACGTGCAATTAGGATGAAAA: 19100 a.u.
ACAAATACGAGCTTGCGCGTGTAGGTTAATCAGTTC: 7680 a.u.
ATTCCAAACGTTACCCACGTTATCAACTACGATTTA: 11500 a.u.
TTGGTGGGGACTCTGCATGTGAAGAAGCTCAGTTCT: 5760 a.u.
TGCGCAACAACTTTTCACGTGAATTTATGTCTAGAA: 8340 a.u.
GCCCATCGAAATTAGCACGATAGAGGAAGAGCAATC: 5800 a.u.
AAAGCGGTAATTTGATGAGTGGGTGCAGATATCTAT: 4700 a.u.
TTTGGTCTTCGATCCCACGTGGCCAACAATATCTTC: 17000 a.u.
CTTCTGTAAATTTGTCACACCACTTGACGCGCCCCG: 4020 a.u.
TCCTCACAGATCTGCCACGTGGCTGTGCGGCTGACC: 17100 a.u.

Series 3 — method: RNA Bind-n-Seq; molecule type: RNA; sample: in vitro; concentration: 365 nM; relative to: no-protein control; direction: higher = stronger binding; quantity: RBNS enrichment (R)
Target: RNA binding protein fox-1 homolog 2, RRM domain, GST-SBP tag (RBFOX2, Homo sapiens, UniProt O43251-10, residues 100-194)
Setting: natural RNA segment, single round, ends assumed
Constant ends, left off below: GGGAGUUCUACAGUCCGACGAUC … UGGAAUUCUCGGGUGCCAA
Construct (chain): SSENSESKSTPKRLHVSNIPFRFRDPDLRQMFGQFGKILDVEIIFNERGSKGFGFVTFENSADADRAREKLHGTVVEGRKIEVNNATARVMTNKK
GCUGCUGUGAAACAGCUCUGAUGAACACUAAAUAUUAAUUUCAAUUAGCUAGAUUGUACAUACUUGCAGAUUUAACAAAAUUUUAGGGAAAUUGAAAAAGACAUGUAGAA: 0.684
GCAGGAGGAGGAAGAAGGAAGUGUCCAGUCACAUCCUUAGUUCUCAGAGGACUUUAUUUUCCUCUCUACCUACUCUUUUGGGUGUCACUGUCUCCAGACAGCAGGGCCCU: 0.29
AGACUCCUUUGUGCUGGAACCUGGGCUCCUCCAGCUGCCAGGCAGGAGUCGGUAGGACUGUGCCUGUGCCUCCCUCAGCGGGGCCCUGGGCGGGGUUCCAAGGCCUGCGA: 0.373
GUGAGAGUGUGAAUGCACAGGUGGGUAUUUAAUCUGUAUUAUUCCCCGUUCUUGGAAUUUUCUUCCCCAUGGGGCUGGGGUACUUUACAUUCAAUAAAUACUGUUUAACC: 1.19
CCUUUCCUUUCUUGGGGCACUGUUGCUGUGGCACUUUUCUAUAACCUUGUCAUUCCUAUGUACAGUAGCUGGAAGUCGCAGUGAGCAAGCAUAACCCACGUUUGUAUAAA: 0.407
CCCCUUGCAGCUGUUGGAAUCUCUGCAAGAACCUCUGUAUUCUUCUAAUAAAUUCCCUCUUUUAUUUAAACUAGUUUGACUGGUUUCUGUUCCAUGCAACCAAAUGGUCC: 0.986
UGCAGCAUCCCACCAUCCUCCAGACAGACCACCUGACCCCUUCUCAACUCUGUAACAUGGACGCAACCUCAACCCGGCGCAGUUACAACUUCACUGUCAGUGGAAGGGGA: 0.365
AGUGCCUUCAGUUUAGCAUUGCUAUAAAAUGAACCCUGAAUUAGCGAAACAGUGUAACAUUAUUCUGUGUUCUUUAUUAGCUAACUACAAGUGUAUGCUUUCCACUCUGG: 0.61

Series 4 — method: RNA Bind-n-Seq; molecule type: RNA; sample: in vitro; concentration: 200 nM; setting: whole 134-nt RNA, ends assumed; added: 150 mM KCl; relative to: input library; direction: higher = stronger binding; quantity: log2 enrichment
Target: Ras GTPase-activating protein-binding protein 1, full length (G3BP1, Homo sapiens, UniProt Q13283)
Chain of UniProt Q13283 (whole entry, looked up): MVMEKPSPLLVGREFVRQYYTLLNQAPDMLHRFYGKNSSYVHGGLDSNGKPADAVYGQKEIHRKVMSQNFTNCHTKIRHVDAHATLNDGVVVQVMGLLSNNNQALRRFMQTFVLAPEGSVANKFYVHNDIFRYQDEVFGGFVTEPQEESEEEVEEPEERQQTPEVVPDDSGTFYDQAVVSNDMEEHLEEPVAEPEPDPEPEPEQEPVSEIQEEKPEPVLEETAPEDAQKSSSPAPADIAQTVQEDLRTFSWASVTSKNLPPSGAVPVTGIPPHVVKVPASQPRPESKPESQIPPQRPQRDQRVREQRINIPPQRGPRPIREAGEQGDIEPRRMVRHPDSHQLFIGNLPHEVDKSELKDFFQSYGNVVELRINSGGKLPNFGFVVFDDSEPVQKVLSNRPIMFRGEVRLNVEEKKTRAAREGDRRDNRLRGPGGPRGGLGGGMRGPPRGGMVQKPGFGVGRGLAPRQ
Constant ends, left off below: GGGAGUUCUACAGUCCGACGAUC … UGGAAUUCUCGGGUGUCAAGG
UCCUGUGCUACACAUCGUAUGUACCGAAUCGGGAAAAAAAGGAAAAAAAGGAAAAAAAGGAAAGUAUUAUGUUACGCCGUUCGGAUCUGC: -0.337
AAGUCCUGUGCUACACAUCGUAUGUACCGAAUCGGGAAAAAAAGGGUUUGGGUGGGAAAGUAUUAUGUUACGCCGUUCGGAUCUGCACUU: 0.242
CAAGUCCUGUGCUACACAUCGUAUGUACCGAAUCGGUUUGGUUUUUGGAAAAAGGAAAGUAUUAUGUUACGCCGUUCGGAUCUGCACUUC: -0.697
ACCAUGCUGGUGGGCAUCUUUGGGAAGUGGGGCAAGGGGGGGAUAGGGAGGGGGGUAACACUUUGGGAACAGGUGGUCCCAGGUCGUUUC: 1.29
GCAGGAAGUAAAAACAAAUGGAAAUGCUUCGGAUAGUGGCAGGGGUGGGGGUUGCUAAGGAAAGGGUGGGAGGGGAGUGGGUAAAGAGUU: 1.24
AGUCCUGUGCUACACAUCGUAUGUACCGAAUCGGGCCCCCGGCCCCCGGGGCCCCCGGAAAGUAUUAUGUUACGCCGUUCGGAUCUGCAC: -0.946
CACAGACAACACGCACCCACACAGACACAGAGGGAAGGGGUUGGGAUGGGGACAGGGUGCACAGCAGGGCGGGAUAGGACCCCAGCCCCU: 1.97
UCAUUUUUUUCCCUGCCGGAAUUUUAGCAUUGAUAUGAACCAUGGACAAGUAUAUUCUGCUGCCACAAAGACUGUAAAGUGCUUCAUUUC: 0.13
CACAGACAACACGCACCCACACAGACACAGAGGGAAGGGGUUGGGAUGGGGACAGGGUUCACAGCAGGGCGGGGUAGGACCCCAGCCCCU: 1.6

Excerpt of the above (series 2):
TAAGTGTGTCCCACACTCGTGGCAATTTTTCTTGAT: 10900 a.u.
GACACTTCTTTGTATAACGTGACGGTGGTGTCGCCA: 7940 a.u.
TGCGCAACAACTTGCGGGGTGGGTGTATGTCTAGAA: 5310 a.u.
TCGGTTGTCCAAACCCATGTGGTGCTGGTGGCGGAA: 9530 a.u.
GCAATTGAGCTTTAGCACGTGCAATTAGGATGAAAA: 19100 a.u.
